Measurements pooled from the literature.
Each line is one published result; not all experiments were run side by side. Numbers after ± are the reported error.
SCN10A: Sodium channel protein type 10 subunit alpha (SCN10A, Homo sapiens, UniProt Q9Y5Y9)
Sequence of UniProt Q9Y5Y9 (whole entry, looked up): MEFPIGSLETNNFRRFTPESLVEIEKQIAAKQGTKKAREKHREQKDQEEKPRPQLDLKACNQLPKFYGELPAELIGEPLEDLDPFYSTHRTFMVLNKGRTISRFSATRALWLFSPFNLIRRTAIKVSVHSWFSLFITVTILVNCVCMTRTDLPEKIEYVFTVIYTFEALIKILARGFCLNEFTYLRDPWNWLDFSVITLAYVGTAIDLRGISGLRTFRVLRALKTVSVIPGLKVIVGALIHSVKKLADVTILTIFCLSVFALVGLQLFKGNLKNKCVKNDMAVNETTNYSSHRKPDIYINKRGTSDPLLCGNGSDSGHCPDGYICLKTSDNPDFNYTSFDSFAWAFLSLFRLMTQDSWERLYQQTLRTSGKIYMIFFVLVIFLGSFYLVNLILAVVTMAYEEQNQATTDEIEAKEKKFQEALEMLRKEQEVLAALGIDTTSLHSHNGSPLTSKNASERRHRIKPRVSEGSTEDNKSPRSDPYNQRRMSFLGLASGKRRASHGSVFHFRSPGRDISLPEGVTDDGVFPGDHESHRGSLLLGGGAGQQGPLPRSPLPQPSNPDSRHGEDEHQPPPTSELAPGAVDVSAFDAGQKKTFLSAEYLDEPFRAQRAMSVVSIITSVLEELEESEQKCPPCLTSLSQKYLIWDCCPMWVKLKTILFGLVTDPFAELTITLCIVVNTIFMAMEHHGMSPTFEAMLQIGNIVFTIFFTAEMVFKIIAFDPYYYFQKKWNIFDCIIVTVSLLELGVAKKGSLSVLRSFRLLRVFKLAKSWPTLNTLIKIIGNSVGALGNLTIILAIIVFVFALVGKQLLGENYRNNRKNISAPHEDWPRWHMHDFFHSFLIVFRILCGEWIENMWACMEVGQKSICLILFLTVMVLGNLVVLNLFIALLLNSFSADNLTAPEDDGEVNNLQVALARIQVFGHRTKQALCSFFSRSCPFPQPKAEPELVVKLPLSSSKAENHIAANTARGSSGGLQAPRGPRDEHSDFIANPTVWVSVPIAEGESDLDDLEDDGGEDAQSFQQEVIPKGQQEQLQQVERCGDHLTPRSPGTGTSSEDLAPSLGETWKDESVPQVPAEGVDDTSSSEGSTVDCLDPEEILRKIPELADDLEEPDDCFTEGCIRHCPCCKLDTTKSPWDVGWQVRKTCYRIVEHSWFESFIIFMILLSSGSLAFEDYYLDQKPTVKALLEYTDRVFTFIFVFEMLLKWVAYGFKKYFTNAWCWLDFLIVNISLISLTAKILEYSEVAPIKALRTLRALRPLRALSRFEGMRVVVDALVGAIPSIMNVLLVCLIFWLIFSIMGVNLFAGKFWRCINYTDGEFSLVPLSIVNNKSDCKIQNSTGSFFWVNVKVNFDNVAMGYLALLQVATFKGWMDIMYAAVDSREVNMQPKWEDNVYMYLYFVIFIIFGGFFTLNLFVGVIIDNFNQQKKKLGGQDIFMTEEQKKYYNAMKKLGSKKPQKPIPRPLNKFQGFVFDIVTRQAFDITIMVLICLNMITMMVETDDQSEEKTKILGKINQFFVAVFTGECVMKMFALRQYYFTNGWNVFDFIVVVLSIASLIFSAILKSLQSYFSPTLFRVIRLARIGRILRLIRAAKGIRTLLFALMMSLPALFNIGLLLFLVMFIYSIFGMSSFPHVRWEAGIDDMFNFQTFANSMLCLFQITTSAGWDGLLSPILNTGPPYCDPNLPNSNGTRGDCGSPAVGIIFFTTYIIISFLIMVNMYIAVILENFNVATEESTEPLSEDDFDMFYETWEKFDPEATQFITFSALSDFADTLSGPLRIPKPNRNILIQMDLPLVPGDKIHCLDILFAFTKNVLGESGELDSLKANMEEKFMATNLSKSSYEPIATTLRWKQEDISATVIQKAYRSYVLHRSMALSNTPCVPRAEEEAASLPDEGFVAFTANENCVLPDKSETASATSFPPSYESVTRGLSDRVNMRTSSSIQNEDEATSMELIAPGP
CHRM1: Muscarinic acetylcholine receptor M1 (CHRM1, Homo sapiens, UniProt P11229)
Sequence of UniProt P11229 (whole entry, looked up): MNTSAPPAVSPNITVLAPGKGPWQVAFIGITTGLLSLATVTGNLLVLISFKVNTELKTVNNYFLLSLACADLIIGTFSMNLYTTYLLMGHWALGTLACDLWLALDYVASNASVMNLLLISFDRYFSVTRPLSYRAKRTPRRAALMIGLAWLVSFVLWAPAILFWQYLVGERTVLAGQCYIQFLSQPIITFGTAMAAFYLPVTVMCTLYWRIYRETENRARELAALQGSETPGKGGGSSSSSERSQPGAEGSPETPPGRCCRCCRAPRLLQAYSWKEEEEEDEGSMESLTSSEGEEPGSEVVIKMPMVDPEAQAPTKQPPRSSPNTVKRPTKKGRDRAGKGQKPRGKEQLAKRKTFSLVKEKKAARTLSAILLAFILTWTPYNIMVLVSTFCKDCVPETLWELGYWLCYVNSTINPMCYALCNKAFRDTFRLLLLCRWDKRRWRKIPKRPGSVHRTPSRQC
IDO1: Indoleamine 2,3-dioxygenase 1 (IDO1, Homo sapiens, UniProt P14902)
Sequence of UniProt P14902 (whole entry, looked up): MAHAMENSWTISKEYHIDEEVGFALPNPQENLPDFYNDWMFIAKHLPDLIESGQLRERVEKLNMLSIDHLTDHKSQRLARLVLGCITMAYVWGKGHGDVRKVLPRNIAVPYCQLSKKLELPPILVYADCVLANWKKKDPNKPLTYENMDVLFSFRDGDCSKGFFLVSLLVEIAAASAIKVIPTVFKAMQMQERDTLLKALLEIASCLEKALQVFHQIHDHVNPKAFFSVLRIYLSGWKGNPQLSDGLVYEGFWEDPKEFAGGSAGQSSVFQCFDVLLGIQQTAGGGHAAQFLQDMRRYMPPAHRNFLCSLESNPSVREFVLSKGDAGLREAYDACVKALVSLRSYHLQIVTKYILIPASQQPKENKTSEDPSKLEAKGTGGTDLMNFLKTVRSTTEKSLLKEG
Aldo-keto reductase family 1 member B1: Aldo-keto reductase family 1 member B1 (Bos taurus, UniProt P16116)
PPO3: PPO3 (Agaricus bisporus, UniProt C7FF04)
Sequence of UniProt C7FF04 (whole entry, looked up): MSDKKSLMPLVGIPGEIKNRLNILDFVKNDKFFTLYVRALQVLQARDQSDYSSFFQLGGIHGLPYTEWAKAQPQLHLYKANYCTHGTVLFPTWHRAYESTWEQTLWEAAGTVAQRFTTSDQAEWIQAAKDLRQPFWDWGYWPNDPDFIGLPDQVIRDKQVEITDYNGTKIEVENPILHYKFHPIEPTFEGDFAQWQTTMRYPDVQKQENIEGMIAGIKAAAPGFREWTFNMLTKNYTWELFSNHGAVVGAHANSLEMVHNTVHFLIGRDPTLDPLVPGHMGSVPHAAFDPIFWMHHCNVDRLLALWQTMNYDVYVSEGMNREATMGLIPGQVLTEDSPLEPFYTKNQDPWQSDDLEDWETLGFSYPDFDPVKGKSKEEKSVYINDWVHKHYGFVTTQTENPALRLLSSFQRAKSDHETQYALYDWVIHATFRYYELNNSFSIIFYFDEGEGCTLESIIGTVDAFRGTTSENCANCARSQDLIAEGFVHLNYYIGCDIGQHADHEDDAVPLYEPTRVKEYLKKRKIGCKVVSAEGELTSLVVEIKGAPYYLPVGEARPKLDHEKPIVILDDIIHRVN
KDM1A with CoREST: Lysine-specific histone demethylase 1A, with CoREST (KDM1A, Homo sapiens, UniProt O60341)
Genome polyprotein NS2B-NS3 protease: Genome polyprotein, NS2B-NS3 protease (Dengue virus type 2, UniProt P14340)
Sequence of UniProt Q7Z1V1 (whole entry, looked up): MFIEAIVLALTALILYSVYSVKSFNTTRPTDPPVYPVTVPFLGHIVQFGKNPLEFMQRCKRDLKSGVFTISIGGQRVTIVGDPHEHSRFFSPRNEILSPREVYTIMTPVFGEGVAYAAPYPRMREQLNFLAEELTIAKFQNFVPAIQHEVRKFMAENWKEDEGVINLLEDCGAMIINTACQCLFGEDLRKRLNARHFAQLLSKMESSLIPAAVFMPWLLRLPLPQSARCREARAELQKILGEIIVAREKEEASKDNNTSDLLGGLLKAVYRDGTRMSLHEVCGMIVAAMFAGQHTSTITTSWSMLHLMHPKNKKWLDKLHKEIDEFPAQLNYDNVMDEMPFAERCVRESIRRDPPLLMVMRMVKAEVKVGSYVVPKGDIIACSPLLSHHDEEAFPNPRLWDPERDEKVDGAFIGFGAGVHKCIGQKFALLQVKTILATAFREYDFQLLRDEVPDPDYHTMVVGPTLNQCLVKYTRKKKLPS
Sequence of UniProt P04406 (whole entry, looked up): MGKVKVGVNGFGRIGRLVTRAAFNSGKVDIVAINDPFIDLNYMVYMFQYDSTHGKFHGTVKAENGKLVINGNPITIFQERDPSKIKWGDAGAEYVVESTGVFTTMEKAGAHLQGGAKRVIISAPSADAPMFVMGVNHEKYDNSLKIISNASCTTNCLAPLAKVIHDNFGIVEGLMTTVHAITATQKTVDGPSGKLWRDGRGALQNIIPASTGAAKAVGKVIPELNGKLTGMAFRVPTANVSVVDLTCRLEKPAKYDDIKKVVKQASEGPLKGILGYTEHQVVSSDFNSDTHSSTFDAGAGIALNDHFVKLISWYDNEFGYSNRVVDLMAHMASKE
Sequence of UniProt O08914 (whole entry, looked up): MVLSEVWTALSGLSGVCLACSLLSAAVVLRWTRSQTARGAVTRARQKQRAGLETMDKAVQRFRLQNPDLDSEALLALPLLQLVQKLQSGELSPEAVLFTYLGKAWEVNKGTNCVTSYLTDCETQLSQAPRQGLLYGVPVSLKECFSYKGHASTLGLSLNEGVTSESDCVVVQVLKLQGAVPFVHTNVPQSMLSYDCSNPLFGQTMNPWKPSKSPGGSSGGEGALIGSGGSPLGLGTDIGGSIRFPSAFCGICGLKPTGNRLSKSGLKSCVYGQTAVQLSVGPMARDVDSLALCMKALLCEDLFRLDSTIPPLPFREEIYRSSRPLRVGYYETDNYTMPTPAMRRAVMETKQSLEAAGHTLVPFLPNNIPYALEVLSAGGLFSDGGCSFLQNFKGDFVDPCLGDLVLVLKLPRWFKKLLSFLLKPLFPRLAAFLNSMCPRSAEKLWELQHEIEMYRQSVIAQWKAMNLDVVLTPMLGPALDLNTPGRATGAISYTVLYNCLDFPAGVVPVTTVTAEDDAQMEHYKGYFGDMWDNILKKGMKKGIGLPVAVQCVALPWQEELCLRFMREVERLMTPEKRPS

Molecule | target | assay | system | conditions | how to read | quantity | value
CC(C)(C)c1cnc(CSc2cnc(NC(=O)C3CCNCC3)s2)o1 | GSK3A (Homo sapiens, UniProt P49840) | probe labeling, KiNativ live-cell profiling | MOLT-4 CRBN knockout | 0.25 µM | – | inhibition | 40.2%
COc1cc(C(=O)OCCCN2CCCN(CCCOC(=O)c3cc(OC)c(OC)c(OC)c3)CC2)cc(OC)c1OC.Cl.Cl | SCN10A | sodium influx, inhibitor, FLIPR | HEK293 | 10 µM, with: deltamethrin 10 µM | – | inhibition | 76.9%
CS(=O)(=O)c1ccc(COc2ccccc2-c2cc(=O)n(C3CCCCC3O)cn2)cc1 (stereo not drawn) | CHRM1 | positive allosteric modulator, IP1 accumulation | CHO-M1 cells | 1 µM, 60 min, 37 °C, with: ACh | baseline: ACh alone, higher = stronger potentiation | ΔpEC50 of ACh | 0.56 ± 0.1 log units
Cc1ccc(Br)c(C)c1C(=O)NCc1nnc2ccc(C(F)(F)F)cn12 | IDO1 | kynurenine production, inhibitor, refers to: L-kynurenine | A-375 | 10 µM, 48 h, with: IFN-γ | – | inhibition | 38 ± 1%
COc1cccc(-n2c(-c3ccc(Cl)cc3)cs/c2=N/N=C(/C)c2ccc3c(c2)NC(=O)CO3)c1 | Aldo-keto reductase family 1 member B1 | enzyme activity, inhibitor, absorbance | – | 1 mM | – | inhibition | 5.16%
COc1cc(/C=C2\OC(=S)N(c3ccccc3)C2=O)cc(OC)c1O | PPO3 | enzyme activity, inhibitor | – | 25 µM | – | inhibition | 10.2%
COc1ccccc1Cn1cc(COC(=O)NC2CCCCC2)nn1 | Faah (Mus musculus, UniProt O08914) | enzyme activity | CD1 mice, brain, ex vivo | intraperitoneal, 3 mg/kg, 1 h | baseline: vehicle | inhibition | 78%
GRTMQTARKSTGG | SETD7 (Homo sapiens, UniProt Q8WTS6) | enzyme activity, inhibitor, MALDI-TOF MS | peptide | 50 µM, 10 min preincubation, 30 min, pH 8, 37 °C, enzyme 500 nM, with: H3 1-21 peptide, SAM 30 µM | – | inhibition | ~31%
CCSc1ccc2c(c1)N(CCCN1CCN(C)CC1)c1ccccc1S2.O=C(O)CC(O)C(=O)O.O=C(O)CC(O)C(=O)O | SCN10A | sodium influx, inhibitor, FLIPR | HEK293 | 10 µM, with: deltamethrin 10 µM | – | inhibition | 86.6%
COc1cc(/C=C2\OC(=S)N(c3ccccc3)C2=O)ccc1O | PPO3 | enzyme activity, inhibitor | – | 25 µM, with: L-tyrosine | – | inhibition | < 0%
Cc1cccc(C)c1-n1c(-c2ccc(Cl)cc2)cs/c1=N/N=C\c1c[nH]c2ccccc12 | Aldo-keto reductase family 1 member B1 | enzyme activity, inhibitor, absorbance | – | 1 mM | – | inhibition | < 50%
CSCC[C@H](NC(=O)[C@@H](NC(=O)[C@H](CCCNC(=N)N)NC(=O)[C@H](C)N)[C@@H](C)O)C(=O)N[C@H]1CCCCNC(=O)CC[C@@H](C(=O)N[C@H](C(=O)NCC(=O)N[C@@H](C)C(=O)N[C@@H](CCCCN)C(=O)N[C@@H](C)C(=O)N2CCC[C@H]2C(=O)N[C@@H](CCCNC(=N)N)C(=O)N[C@@H](CCCCN)C(=O)N[C@@H](CCC(N)=O)C(=O)N[C@@H](CC(C)C)C(=O)N[C@@H](C)C(=O)O)[C@@H](C)O)NC(=O)[C@H](CCCCN)NC(=O)[C@H](CCCNC(=N)N)NC(=O)[C@H](C)NC(=O)[C@H]([C@@H](C)O)NC1=O | KDM1A with CoREST | demethylase activity, fluorescence | – | 500 nM | – | inhibition | 9 ± 0.7%
Ic1ccccc1C(Nc1nccs1)(c1ccccc1)c1ccccc1 | Gap junction beta-1 protein (Gjb1, Rattus norvegicus, UniProt P08033) | gap junction channel current, inhibitor, dual whole-cell voltage clamp | N2a | 10 µM | – | inhibition | < 20%
O=C(NCc1nnc2ccccn12)c1cccc2cn[nH]c12 | IDO1 | kynurenine production, inhibitor, refers to: L-kynurenine | A-375 | 10 µM, 48 h, with: IFN-γ | – | inhibition | 1 ± 1%
CC(CN(C)C)CN1c2ccccc2Sc2ccccc21.CC(CN(C)C)CN1c2ccccc2Sc2ccccc21.O=C(O)C(O)C(O)C(=O)O (stereo not drawn) | SCN10A | sodium influx, inhibitor, FLIPR | HEK293 | 10 µM, with: deltamethrin 10 µM | – | inhibition | 79%
O=C(NCc1nnc2ccc(C(F)(F)F)cn12)c1ccc(O)c(Br)c1 | IDO1 | kynurenine production, inhibitor, refers to: L-kynurenine | A-375 | 10 µM, 48 h, with: IFN-γ | – | inhibition | 40 ± 8%
Cn1cc(-c2ccccc2)c2ccc(Cl)nc21 | Gag-Pol polyprotein, integrase (gag-pol, Human immunodeficiency virus type 1 group M subtype B, UniProt P04585) | strand transfer | wild type | 10 µM | – | inhibition | 14.4%
O=C(NCc1nnc2ccc3ccccc3n12)c1cccc2cn[nH]c12 | IDO1 | kynurenine production, inhibitor, refers to: L-kynurenine | A-375 | 10 µM, 48 h, with: IFN-γ | – | inhibition | > 50%
C/C(=N/N=c1/scc(-c2ccc(Br)cc2)n1-c1c(C)cccc1C)c1ccc2c(c1)NC(=O)CO2 | Aldo-keto reductase family 1 member B1 | enzyme activity, inhibitor, absorbance | – | 1 mM | – | inhibition | 22.7%
O=C(N[C@@H](Cn1ccnc1)c1c(F)cc(-c2ccc(F)cc2)cc1F)c1ccc(-c2nnc(-c3ccccc3)o2)cc1 | CYP51 (Trypanosoma cruzi, UniProt Q7Z1V1) | enzyme activity, inhibitor | – | 1 µM, 1 h, equimolar inhibitor/enzyme, with: eburicol 50 µM | – | inhibition | inhibited
COc1ccc(/C=C2\OC(=S)N(c3ccccc3)C2=O)c(OC)c1 | PPO3 | enzyme activity, inhibitor | – | 25 µM | – | inhibition | 4.09%
Cc1ccc(-c2cccc(C(=O)NCc3nnc4ccc(C(F)(F)F)cn34)c2)cc1 | IDO1 | kynurenine production, inhibitor, refers to: L-kynurenine | A-375 | 10 µM, 48 h, with: IFN-γ | – | inhibition | 39 ± 4%
COc1ccc(/C=C2\OC(=S)N(c3ccccc3)C2=O)cc1 | PPO3 | enzyme activity, inhibitor | – | 25 µM, with: L-tyrosine | – | inhibition | < 0%
COc1ccc(C(=O)CN2CC(=Cc3ccc(Cl)cc3Cl)C(=O)C(=Cc3ccc(Cl)cc3Cl)C2)cc1 | Genome polyprotein NS2B-NS3 protease | protease activity | dengue virus 2 | 50 µM | – | inhibition | < 10%
CSc1ccc2c(c1)C(N1CCN(C)CC1)Cc1ccccc1S2.O=C(O)/C=C\C(=O)O (stereo not drawn) | SCN10A | sodium influx, inhibitor, FLIPR | HEK293 | 10 µM, with: deltamethrin 10 µM | – | inhibition | 85.6%
glutathione | GAPDH (Homo sapiens, UniProt P04406) | protein aggregation, turbidity | – | 50 µM, 48 h, 37 °C | – | inhibition | 43.3 ± 2.55%
Cc1ccc(COc2ccccc2-c2cc(=O)n(C3CCCCC3O)cn2)cc1 (stereo not drawn) | CHRM1 | positive allosteric modulator, IP1 accumulation | CHO-M1 cells | 1 µM, 60 min, 37 °C, with: ACh | baseline: ACh alone, higher = stronger potentiation | ΔpEC50 of ACh | 0.84 ± 0.14 log units
O=[N+]([O-])c1ccc(-c2cs/c(=N/N=C\c3c[nH]c4ccccc34)n2-c2ccccc2)cc1 | Aldo-keto reductase family 1 member B1 | enzyme activity, inhibitor, absorbance | – | 1 mM | – | inhibition | < 50%
CCCCCCCC(=O)NCCCC[C@H](NC(=O)[C@H](C)NC(=O)[C@H](CC(C)C)NC(=O)[C@H](CCC(N)=O)NC(=O)[C@H](CCCCN)NC(=O)[C@H](CCCNC(=N)N)NC(=O)[C@@H]1CCCN1C(=O)[C@H](C)NC(=O)[C@H](CCCCN)NC(=O)CNC(=O)CNC(=O)[C@@H](NC(=O)[C@@H]1CCC(=O)NCCCC[C@H](NC(=O)[C@H](CCSC)NC(=O)[C@H](C)NC(=O)[C@H](CCCNC(=N)N)NC(=O)[C@H](C)N)C(=O)N[C@@H]([C@@H](C)O)C(=O)N[C@@H](C)C(=O)N[C@@H](CCCNC(=N)N)C(=O)N[C@@H](CCCCN)C(=O)N1)[C@@H](C)O)C(N)=O | KDM1A with CoREST | demethylase activity, inhibitor, fluorescence | – | 500 nM | – | inhibition | 71 ± 3.4%
O=C1C(=Cc2ccccc2Cl)CN(CC(=O)c2ccc(F)cc2)CC1=Cc1ccccc1Cl | Genome polyprotein NS2B-NS3 protease | protease activity | dengue virus 2 | 50 µM | – | inhibition | < 10%

Excerpt of the above:
Molecule | target | assay | system | conditions | how to read | quantity | value
COc1cc(/C=C2\OC(=S)N(c3ccccc3)C2=O)ccc1O | PPO3 | enzyme activity, inhibitor | – | 25 µM, with: L-tyrosine | – | inhibition | < 0%
COc1ccccc1Cn1cc(COC(=O)NC2CCCCC2)nn1 | Faah (Mus musculus, UniProt O08914) | enzyme activity | CD1 mice, brain, ex vivo | intraperitoneal, 3 mg/kg, 1 h | baseline: vehicle | inhibition | 78%
COc1cc(C(=O)OCCCN2CCCN(CCCOC(=O)c3cc(OC)c(OC)c(OC)c3)CC2)cc(OC)c1OC.Cl.Cl | SCN10A | sodium influx, inhibitor, FLIPR | HEK293 | 10 µM, with: deltamethrin 10 µM | – | inhibition | 76.9%
COc1cc(/C=C2\OC(=S)N(c3ccccc3)C2=O)cc(OC)c1O | PPO3 | enzyme activity, inhibitor | – | 25 µM | – | inhibition | 10.2%
